Experimental data pooled from the literature.
Lines come from different studies, so protocols differ. “And” joins repeats or separate records; there may be more than shown.
FLT4: Vascular endothelial growth factor receptor 3 (FLT4, Homo sapiens, UniProt P35916)
TDP1: Tyrosyl-DNA phosphodiesterase 1 (TDP1, Homo sapiens, UniProt Q9NUW8)
Sequence of UniProt Q9NUW8 (whole entry, looked up): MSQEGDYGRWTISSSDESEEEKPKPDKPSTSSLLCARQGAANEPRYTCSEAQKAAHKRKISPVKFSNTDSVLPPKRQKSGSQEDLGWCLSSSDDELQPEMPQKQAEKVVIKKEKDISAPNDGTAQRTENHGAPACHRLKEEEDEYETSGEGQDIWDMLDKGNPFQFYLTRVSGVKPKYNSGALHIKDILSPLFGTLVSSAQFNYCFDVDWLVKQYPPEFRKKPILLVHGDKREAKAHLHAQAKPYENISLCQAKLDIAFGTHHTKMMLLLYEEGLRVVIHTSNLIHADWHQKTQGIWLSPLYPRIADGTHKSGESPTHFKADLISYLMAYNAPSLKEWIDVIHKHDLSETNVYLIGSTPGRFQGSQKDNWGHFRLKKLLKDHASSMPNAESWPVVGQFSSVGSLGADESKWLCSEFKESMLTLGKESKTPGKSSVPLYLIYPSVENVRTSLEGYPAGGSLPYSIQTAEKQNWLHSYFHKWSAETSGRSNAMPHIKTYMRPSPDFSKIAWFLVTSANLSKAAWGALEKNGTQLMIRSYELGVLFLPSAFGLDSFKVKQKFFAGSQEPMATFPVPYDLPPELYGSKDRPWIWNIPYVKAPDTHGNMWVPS

Structure (SMILES)	target	assay	system	setting	how to read	measurement	result
COc1c(Cl)cccc1Nc1c(-c2ccncc2C#C[C@@]2(C)CCCN2C(=O)/C=C/CN(C)C)[nH]c2c1C(=O)NCC2	FLT4	cell-free assay, competition with immobilised ligand		3 µM		remaining binding	92%
COc1ccc(Br)c(C=NOCc2ccc3nc(-c4ccccc4)c(Nc4ccc(C(=O)O)cc4)n3c2)c1OC (mixture of isomers)	TDP1	enzyme activity, inhibitor		100 µM, unpurified compound		inhibition	45.5%
CNC(=O)C1CCN(c2cc(C)c(F)cc2NC(=O)c2ccc(-c3cc(O)ccc3C)c(C)c2)CC1	FLT4	binding, competition with immobilised ligand		1 µM		remaining binding	100%
Cc1cccc(O[C@H]2CCC[C@@H](C(C)CNCc3ccncc3)C2)c1 (relative stereo)	FLT4	cell-free assay		1 µM		inhibition	2%
O=C=[N][Ru-4]123([n]4c5ccc(O)cc5c5c6c(c7cc(F)c[n+]1c7c54)C(=O)NC6=O)[S+]1CC[S+]2CC[S+]3CC1 (stereo not drawn)	FLT4	enzyme activity		100 nM, human enzyme, added: 10 µM ATP	relative to: untreated	remaining activity	55%
COc1cc(Nc2nccc(-c3cnn4nc(OC)ccc34)n2)cc(C(F)(F)F)c1	FLT4	binding, competition with immobilised ligand		1 µM		remaining binding	100%
CCN1CCN(Cc2ccc(NC(=O)c3ccc(C)c(NC(=O)c4cncc(-c5cccs5)c4)c3)cc2C(F)(F)F)CC1	FLT4	binding, competition with immobilised ligand		1 µM		remaining binding	11%
CC(C)=CC1OC(C)(C)C2C=C3C(=O)C(Cl)=CC(O)C3C3C(O)C4OC4C(=O)C132 (stereo not drawn)	FLT4	cell-free assay, competition with immobilised ligand		10 µM		remaining binding	88%
N[C@H]1CC[C@H](Nc2nccc(-c3cccnc3Oc3ccc(NC(=O)NC4CC4)c4ccccc34)n2)CC1	FLT4	kinobead competition pulldown	HEK293/HCT116 lysate mixture	10 µM, 1 h, 4 °C	lower = stronger competition	log2 LFQ intensity	22.5 and 22.1 and 21.8 and 22.3
NC(=O)C[C@H]1CCc2sc3ncnc(O[C@H]4CC[C@H](N5CCOCC5)CC4)c3c21	FLT4	enzyme activity, inhibitor		10 µM		inhibition	7%
C=CC(=O)N1Cc2nc(-c3cc(-c4cc(Cl)cnc4Cl)c(F)cc3F)n(-c3ccncn3)c2C1	FLT4	cell-free assay		1 µM		inhibition	0.9%
Cc1cc(C=NOCc2ccc3nc(-c4ccccc4)c(Nc4ccc(C(=O)O)cc4)n3c2)c(C)n1-c1ccncc1	TDP1	enzyme activity, inhibitor		100 µM, unpurified compound		inhibition	16%
C[C@H]1CN(C(=O)c2cn(-c3ccnc(N)n3)c3cc(C#CC4(O)CCCCC4)ccc23)CCN1	FLT4	enzyme activity, inhibitor, FRET		1 µM		inhibition	-2%
COCC12C(=O)NC3C4(C(OC)CC1O)C1CC5(O)C(OC)C(O)C(OC(C)=O)(C1C5OC(=O)c1ccccc1)C3(O)C(OC)C24 (stereo not drawn)	FLT4	kinase activity, inhibitor, ProQinase kinase profiling		25 µM	relative to: control	remaining activity	109% and 96%
Nc1ncc2c(n1)-c1c([nH]c3ccc(C4=CCOCC4)cc13)CCC2	FLT4	binding, competition with immobilised ligand		1 µM		remaining binding	74%
Cc1[nH]nc2c1N=C(c1ccccc1Cl)c1cnc(N3CCOCC3)cc1N2	FLT4	enzyme activity, inhibitor		0.5 µM		inhibition	> 99%
C=CC(=O)Nc1cccc(-c2cnc3[nH]cc(C(=O)NC(C)(C)C)c3n2)c1	FLT4	kinase activity		0.1 µM		inhibition	47% and 44%
C=CC(=O)N1CCCC(n2c(=O)c3ncccc3n(Cc3ccc(Oc4ccccc4)cc3)c2=O)C1 (stereo not drawn)	FLT4	cell-free assay, competition with immobilised ligand		1 µM		remaining binding	80%

For quick reference, copied from above:
Structure (SMILES)	target	assay	system	setting	how to read	measurement	result
Cc1cc(C=NOCc2ccc3nc(-c4ccccc4)c(Nc4ccc(C(=O)O)cc4)n3c2)c(C)n1-c1ccncc1	TDP1	enzyme activity, inhibitor		100 µM, unpurified compound		inhibition	16%
